Experimental data pooled from the literature.
Numbered parts are unrelated; each lists some results of a single study. Substitutions count along the parent as printed.

Study 1 — method: protein-binding microarray; molecule type: double-stranded DNA, one strand shown; sample: in vitro; tested at: 250 nM; setting: 60-bp whole probe; together with: salmon DNA 0.4 mg/ml; baseline: random background probes; reading: higher = stronger binding; shared flanks, not repeated: GCCTAGCAC … GTCTTGATTCGCTTGACGCTGCTG
Target: Interferon regulatory factor 5, full length, phosphomimetic (IRF5, Homo sapiens, UniProt Q13568-2, residues 1-514, K96S/S451D/S453D/S456D/S462D)
`TTAGGACTGGGGTTCCGGTTAGTGCTA` gave a log fluorescence of 0.0118 z-score.
For `CCAGGCTGAAAGACCTCTGAGTGCTAG`, the log fluorescence was -0.263 z-score.
`TTAGAACTGGGGACTGGATTTGTGCTA` gave a log fluorescence of -0.198 z-score.
`TTAGGTATAGGGACTGGGTTAGTGCTA` has a log fluorescence of -0.325 z-score.
For `GACGGTATCGGGTTTCGGGGCGTGCTA`, the log fluorescence was 3.9 z-score.
`TAAGAACTGAGTCTCGATTAGTGCTAG` has a log fluorescence of 0.7 z-score.
`TCAGGTCTCGGTTTCGGTTAGTGCTAG` has a log fluorescence of 8.68 z-score.
`GACGGTCTGCTTATCCTGACGTGCTAG` has a log fluorescence of -0.234 z-score.
For `TTAGAGATCAGTTTCGATTAGTGCTAG`, the log fluorescence was 9.23 z-score.
`GTAGAACTGAGTTTCGATTAGTGCTAG` gave a log fluorescence of 9.23 z-score.
For `TTAGGTATCGACTTTCTGTTAGTGCTA`, the log fluorescence was 6.27 z-score.
For `GACGGTATAGACTATCGGGACGTGCTA`, the log fluorescence was 0.919 z-score.
`TCATCCCTCGGGTTGCGGACTGTGCTA` has a log fluorescence of -0.197 z-score.
For `GACGAACTAGGGTTTCGAGACGTGCTA`, the log fluorescence was 0.886 z-score.
With `GACGGTCTCATTCTCCTGACGTGCTAG` the log fluorescence was -0.136 z-score.
For `TTAGATTTCAGTTCCGCTTAGTGCTAG`, the log fluorescence was 2.54 z-score.
`TCATTTTTCTGCTTAGAACTGTGCTAG` gave a log fluorescence of 1.62 z-score.
The log fluorescence of `TCATCTTTTCATTTTCTACTGTGCTAG` is reported as 2.25 z-score.
`TCAGTTTTCAGTCCTGGACTGTGCTAG` has a log fluorescence of 1.66 z-score.
For `GAAGAACTGAGTCTCGAGACGTGCTAG`, the log fluorescence was -0.3 z-score.
`TCACCCCTCTCTTTCCAACTGTGCTAG` gave a log fluorescence of 0.181 z-score.
`TAAGGACTGGGTTTCGGTTAGTGCTAG` gave a log fluorescence of 8.28 z-score.
For `TCAATCCTATATCTGAAACTGTGCTAG`, the log fluorescence was 0.762 z-score.
With `GACGGACTGCTTATCCTGACGTGCTAG` the log fluorescence was -0.502 z-score.
With `GACGTACTGGGACTGGGGACGTGCTAG` the log fluorescence was -0.589 z-score.

Study 2 — method: competition protein-binding microarray; molecule type: double-stranded DNA, one strand shown; sample: in vitro; tested at: 2 µM; together with: Cbf1 competitor, 0.05 µM; reading: higher = stronger binding
Target: Phosphate system positive regulatory protein PHO4, full length, GST-tagged (PHO4, Saccharomyces cerevisiae, UniProt P07270, residues 1-312)
Setting: whole 60-bp probe, lowest competitor level
Residues (chain): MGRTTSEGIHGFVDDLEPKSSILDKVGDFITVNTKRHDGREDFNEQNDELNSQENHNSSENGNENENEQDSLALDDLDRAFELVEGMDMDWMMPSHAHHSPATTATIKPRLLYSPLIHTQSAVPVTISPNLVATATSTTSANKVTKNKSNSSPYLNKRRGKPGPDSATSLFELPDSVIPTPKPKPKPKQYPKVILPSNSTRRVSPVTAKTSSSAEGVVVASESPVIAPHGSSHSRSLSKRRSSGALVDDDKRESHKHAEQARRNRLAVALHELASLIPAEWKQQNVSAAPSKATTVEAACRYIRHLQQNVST
`TGAAGACTTTGCATCTACGTGTCGGACAAGCTGCCCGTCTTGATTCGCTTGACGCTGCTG` has a fluorescence intensity of 5330 a.u.
For `TTTCCAGGCCCAGCGAGCGTGCTTTGCAAGAGGATCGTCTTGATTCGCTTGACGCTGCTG`, the fluorescence intensity was 6300 a.u.
For `CTTCTGTAAATTTGTTTCGTGGGTGGACGCGCCCCGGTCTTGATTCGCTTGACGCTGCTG`, the fluorescence intensity was 4680 a.u.
`AAAGCGGTAATTTGCTAAGTGGGTGCAGATATCTATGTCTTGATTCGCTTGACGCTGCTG` has a fluorescence intensity of 3820 a.u.
For `ATTTTTCCTGTCCTGCAATTGTTCTCGAGGATTGCTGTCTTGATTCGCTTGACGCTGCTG`, the fluorescence intensity was 3150 a.u.
`AAATTACTAAGTTGTCACGTCACTTACCCCGTATGAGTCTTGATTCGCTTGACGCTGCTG` gave a fluorescence intensity of 4630 a.u.
`CTAACGAAGGTTTGTACGGTGGGTGACAAGCCAAGTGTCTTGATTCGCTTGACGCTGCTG` gave a fluorescence intensity of 3790 a.u.
`CCTCACCATTCGGGGCAGGTGACGAAGCAAGAGCGAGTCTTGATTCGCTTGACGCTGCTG` gave a fluorescence intensity of 4230 a.u.
`TGGCATCCCTCCCGACACGTGACCGCAGCGGGGACAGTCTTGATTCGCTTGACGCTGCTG` gave a fluorescence intensity of 14400 a.u.
`GTCTTGTCTCATTTTCACGTGTCATTCCCCACTTCAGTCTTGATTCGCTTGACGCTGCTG` gave a fluorescence intensity of 11900 a.u.
For `ATCCTAGCCCTAACGCATGTGCTACTTCAAGGAATTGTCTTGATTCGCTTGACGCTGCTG`, the fluorescence intensity was 12500 a.u.

Study 3 — target: CCND3, cyclin fold, Cln2 fusion (human); method: yeast growth competition, sequencing; sample: yeast; setting: weak parent motif; baseline: not given; reading: higher = stronger binding
Parent: BRCA2 docking peptide (human); PSIKRNLLNEFDR
Under “normalised enrichment score”, `L8V` is recorded as 0.123.
For `I3H`, “normalised enrichment score” read 0.102.
Under “normalised enrichment score”, `E10H` is recorded as 0.114.
Under “normalised enrichment score”, `K4I` is recorded as 0.0528.
`K4Q`: “normalised enrichment score” 0.011.
`F11S` — result for “normalised enrichment score”: -0.168.
`F11C`: “normalised enrichment score” 0.0478.
`E10T`: “normalised enrichment score” -0.0562.
`D12Y` — result for “normalised enrichment score”: 0.171.
`L7W`: “normalised enrichment score” 0.127.
Under “normalised enrichment score”, `K4L` is recorded as 0.0564.
`E10W`: “normalised enrichment score” 0.144.
`I3S`: “normalised enrichment score” 0.121.
`K4H` — result for “normalised enrichment score”: 0.153.
For `R13P`, “normalised enrichment score” read 0.0618.
For `N6C`, “normalised enrichment score” read -0.00718.
`R13M`: “normalised enrichment score” 0.0646.
For `E10K`, “normalised enrichment score” read -0.02.
`K4F`: “normalised enrichment score” 0.0743.

Study 4 — method: RNA Bind-n-Seq; molecule type: RNA; sample: in vitro; tested at: 365 nM; baseline: no-protein control; reading: higher = stronger binding
Target: RNA binding protein fox-1 homolog 2, RRM domain, GST-SBP tag (RBFOX2, Homo sapiens, UniProt O43251-10, residues 100-194)
Setting: natural RNA segment, single round, ends assumed
Target sequence (chain): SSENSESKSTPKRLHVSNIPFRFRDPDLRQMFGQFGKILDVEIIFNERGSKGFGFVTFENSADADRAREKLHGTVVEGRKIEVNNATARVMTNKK
`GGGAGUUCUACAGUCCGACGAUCACAAGACCAGGGAGAAUCCACCCAUGGGCGCCCACCAGGUUCUUAUGGAUGCAAGCAGGAGAAGCUCAACACCCUGCCUCUUGCCAAGACAAGGAAGCCUCACCUGGCUUUGGAAUUCUCGGGUGCCAA` — result for “RBNS enrichment (R)”: 2.49.
`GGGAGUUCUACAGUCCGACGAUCAGUGUGGUCAGUAAGGAGAGUUGGGGUGGUGCCUUCCAGCCUGCCCGCCAGUCCAUCCUAGACACUCCCAGAGGCUGCUAGCUCCGCCCCUCUGGCAUGGCUUUCCUUUCUGGAAUUCUCGGGUGCCAA`: “RBNS enrichment (R)” 0.441.
`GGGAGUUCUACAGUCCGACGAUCAGGAGGAGACUGUAGCAAGUAAGGCAUAAGAACACUUGCUCUUAUACCCUAGUGGUGGCGGUCAAGCUAACAAGUGUGAAAAUGCCUUUGGCAUUUUUAAAAAAGUGCAAUGGAAUUCUCGGGUGCCAA`: “RBNS enrichment (R)” 0.303.
Under “RBNS enrichment (R)”, `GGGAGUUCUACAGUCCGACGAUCAAAAGUGUGCUAGAACUUUUUAAAAACACAUAAUGUCUUGAAGUUAGAAUAAACACUAAGAAAUGACAUGUCUGGUGUUACUGCACAAAAGCUUAUCUGGUUUGUGACUGUGGAAUUCUCGGGUGCCAA` is recorded as 0.628.
For `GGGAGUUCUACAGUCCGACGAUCGACAGAUCGCUUGCAUAUUUUUAAAAAUUUCUACUACAGAGACAUUCCAAUAAACUCGUUAAGCCUUCGUGUUCUCGUUGUAUUUUACCCCCGCUCCCACCGGCCCCUUCUGGAAUUCUCGGGUGCCAA`, “RBNS enrichment (R)” read 0.369.
For `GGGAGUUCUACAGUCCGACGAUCAAGGCCUCCCCAUCUGGGAAAUAGAACUGGAUAUUUUGCCUCAUUCACUUGUACUGUAAUAGUGUAUAUAACUUAGUUGGUAUUUCACUAUUUAAUUUUUAAGAAGCCUAUGGAAUUCUCGGGUGCCAA`, “RBNS enrichment (R)” read 0.458.
Under “RBNS enrichment (R)”, `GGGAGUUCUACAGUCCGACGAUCGGAGUCUAGCUCACAUAAAGAGAGUGUUAUAUAAAAAUCCGACAGCUGAACUAGGUUGCUCUUUUUUGGCAGGGAGUGGGGAUGAGAUUUGACACCAAUAUGGGCAAAAUUGGAAUUCUCGGGUGCCAA` is recorded as 0.556.
Under “RBNS enrichment (R)”, `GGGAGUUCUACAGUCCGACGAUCUUGCUGGCCGCCUUCAGAAUCGGGGGGAGUUUAGUCUGAGACAUCCCUGCUCCCCCUUUUUUCAAGUGCCUUAAUAGCAGGGCAAACUGUAGAGUCAGGAGGGCAGGCUAUGGAAUUCUCGGGUGCCAA` is recorded as 0.329.
Under “RBNS enrichment (R)”, `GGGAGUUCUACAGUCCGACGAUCCUUUAGCAUUACUUAUUUUUUUUUCCAUUUGAUGGUUCUUACUUUGUAAAAAUUUAAAUAAAUGAAUGUCUAUACUUUUUAUAAAGAAAAGUGAAAAUACCAUGACACUGUGGAAUUCUCGGGUGCCAA` is recorded as 0.934.
`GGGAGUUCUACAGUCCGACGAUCCUUGUGUUCAGUUAUAUUCUCUCUCUCUCUCAUUUCAAAUACUGCUUGACAAUUCGAAAAUGAACCAAUGAUGUGCUGUGGAAUGUGAUGGUUGUCUUCAUAUAGAGUCAUGGAAUUCUCGGGUGCCAA` — result for “RBNS enrichment (R)”: 1.91.
`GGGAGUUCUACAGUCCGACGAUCUGUAUGGAUACUGGGUUGGGCCUUGGGUUUUACUCACUUUCAGUAUAGCUUGCCAGUAUUGUUAAGGUAUCCAAAGCCUUUCUAGAUAGAGACAGGAACAUUGACUUGAAUGGAAUUCUCGGGUGCCAA` — result for “RBNS enrichment (R)”: 0.442.
Under “RBNS enrichment (R)”, `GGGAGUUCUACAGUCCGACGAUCCUAGGGACAUGAGUCGUGCCCAGGGUAUAAACCCAAACCUGGUCAUUUCUUGAACAGUCUGUGAAUAUGCCUGUGUGGACGCUGUAUCCUGCUGCUGUCCCUCUCCUGGUUGGAAUUCUCGGGUGCCAA` is recorded as 0.315.

Further values, each from its own experiment
The fold induction of `PhoQ, residues 284 288 289 292 302 303 TLSLKA` is reported as 9.79 (PhoP, residues 12 14 15 18 19 TTLRV (Escherichia coli, UniProt P23836); Sort-seq, refers to: YFP reporter; E. coli; PhoQ-PhoP variant library, together with: 10 µM Mg2+; baseline: high Mg2+ state, higher = stronger signaling).

Some of these lines once more (study 3):
Under “normalised enrichment score”, `K4I` is recorded as 0.0528.
`K4Q`: “normalised enrichment score” 0.011.
`F11S` — result for “normalised enrichment score”: -0.168.
`F11C`: “normalised enrichment score” 0.0478.
`E10T`: “normalised enrichment score” -0.0562.
`D12Y` — result for “normalised enrichment score”: 0.171.
`L7W`: “normalised enrichment score” 0.127.
Under “normalised enrichment score”, `K4L` is recorded as 0.0564.
`E10W`: “normalised enrichment score” 0.144.
`I3S`: “normalised enrichment score” 0.121.
